Published values collected from several papers.
“And” joins repeats or separate records; there may be more than shown. ± marks the error that the study gave.
MAPK3: Mitogen-activated protein kinase 3 (MAPK3, Homo sapiens, UniProt P27361)
Nuclear receptor subfamily 2 group C member 2 ligand-binding domain: Nuclear receptor subfamily 2 group C member 2, ligand-binding domain (Homo sapiens, UniProt P49116)
PIAS1: E3 SUMO-protein ligase PIAS1 (PIAS1, Homo sapiens, UniProt O75925)
Pancreatic alpha-amylase: Pancreatic alpha-amylase (Homo sapiens, UniProt P04746)
HTR4: 5-hydroxytryptamine receptor 4 (HTR4, Homo sapiens, UniProt Q13639)

SMILES | target or system | assay | test system | setting | scale | quantity | value
CCC(=O)NS(=O)(=O)c1ccc(-c2c(-c3ccccc3)noc2C)cc1 | COS-7 | – | – | 100 µM, 24 h, 0.1% DMSO, unit not given | reference: control | necrosis | 0.71 ± 0.06
O=c1nc(SCc2cc(F)cc(C(F)(F)F)c2)nc(SCc2ccc3nc(Cl)ccc3c2)[nH]1 | DNA topoisomerase 2-alpha (TOP2A, Homo sapiens, UniProt P11388) | DNA relaxation | – | 7.8 µM | – | mean relaxed DNA | 99.6%
O=C(COP(=O)(O)O)[C@@H](O)[C@H](O)[C@H](O)COP(=O)(O)O | Small ribosomal subunit protein uS11 (Homo sapiens, UniProt P62263) | thermal proteome profiling, item: RPS14 | HepG2 cell lysate | concentration not given, 57 over 37 °C | reference: compound over control | thermal stability ratio | 0.76 and 0.56 and 0.667
CCC1(O)CCCN(C(=O)c2ccc(-c3ccc(F)c(NC(=O)CCl)c3)cc2)C1 (stereo not drawn) | DNA dC->dU-editing enzyme APOBEC-3B, C-terminal domain (Homo sapiens, UniProt Q9UH17) | covalent modifier, intact protein mass spectrometry, item: adduct +26104 Da | – | 125 µM, 1 h, 5-fold molar excess | – | protein adduct | 0%
CC[C@@H]1[C@H](F)C(=O)N[C@@H]1COc1nccc2cc(C(N)=O)c(OC)cc12 | Calcium/calmodulin-dependent protein kinase type II subunit gamma (CAMK2G, Homo sapiens, UniProt Q13555) | ATP-site probe binding, ActivX profiling | THP-1 cell lysate | 0.04 mM, Lys1 site | – | inhibition | 3.3%
COC(=O)c1ccccc1SC1=NS(=O)(=O)c2ccccc21 | Pyruvate kinase PKLR (PKLR, Homo sapiens, UniProt P30613) | enzyme activity, activator, ADP and PEP titration | – | 0.5 mM, apparent Km, together with: PEP or ADP substrate | reference: DMSO | Km decrease | ~30%
C=CC(=O)N1CCC[C@@H](n2nc(-c3ccc(Oc4ccccc4)cc3)c3c(N)ncnc32)C1 | MAPK3 | – | – | 0.1 µM | – | remaining activity | 260%
Nc1ncnc2c1ncn2[C@@H]1O[C@H](C[C@@H](N)CC[C@H](N)C(=O)O)[C@@H](O)[C@H]1O | O-methyltransferase (Sorghum bicolor, UniProt A0A1B6PFV1) | isothermal titration calorimetry | – | concentration not given, apo protein | – | binding stoichiometry | 0.95 ± 0.012 sites
Cc1cc(-c2ccnc3[nH]cc(F)c23)cc(F)c1[C@@]1(O)[C@H](C)CN(C(=O)CN)C[C@@H]1C | AKT1 and AKT3 | ATP probe binding, KiNativ, item: Lys2 site | HEK293T cell lysate | 1 µM | – | inhibition | 7%
COc1cc(-c2cc(C(C)=O)n3ccccc23)c(OC)cc1Cn1ccnc1 | Bromodomain testis-specific protein, BD2 (BRDT, Homo sapiens, UniProt Q58F21) | – | – | – | – | ΔTm | 2.9 °C
N[C@@H](Cc1ccccc1)C(=O)O | PAL1 (Petroselinum crispum, UniProt P24481, Y110F) | binding, ITC | – | – | – | ΔG | -6.4 kcal/mol
COC1=C(OC)C(=O)C(CCCCCCCCCCO)=C(C)C1=O | Nuclear receptor subfamily 2 group C member 2 ligand-binding domain | SPR imaging | – | 600 nM | – | koff | 2.73e-05 s⁻¹
Nc1[nH]nc2nnc(-c3c(-c4ccccc4)nn4ccccc34)cc12 | MAPK3 | ADP-Glo | – | 80 nM, together with: MBP substrate | – | kinase activity | 90.3% and 114% and 62%
COc1ccccc1N1CCN(CC(O)COc2cccc3ccccc23)CC1 (stereo not drawn) | Nuclear receptor subfamily 2 group C member 2 ligand-binding domain | SPR imaging | – | 600 nM | – | koff | 1.05e-07 s⁻¹
CCCC[C@H](NC(=O)[C@H](C)c1c(C)[nH]c2ccc(O)cc12)c1ncc(-c2cc3ccccc3nc2OC)[nH]1 | 5-hydroxytryptamine receptor 1A (HTR1A, Homo sapiens, UniProt P08908) | – | – | – | – | Hill coefficient | 1
COc1cc(Nc2ncc3c(n2)-c2ccc(Cl)cc2C(c2c(F)cccc2OC)=NC3)ccc1C(=O)O | BLK | kinase activity | – | 1 µM | – | remaining activity | 8%
CO[C@H]1O[C@H](COS(=O)(=O)O)[C@@H](O[C@@H]2O[C@@H](C(=O)O)[C@@H](O[C@H]3O[C@H](COS(=O)(=O)O)[C@@H](O[C@@H]4O[C@H](C(=O)O)[C@@H](O[C@H]5O[C@H](COS(=O)(=O)O)[C@@H](O)[C@H](O)[C@H]5NS(=O)(=O)O)[C@H](O)[C@H]4O)[C@H](OS(=O)(=O)O)[C@H]3NS(=O)(=O)O)[C@H](O)[C@H]2OS(=O)(=O)O)[C@H](O)[C@H]1NS(=O)(=O)O | Beta-2-glycoprotein 1, domain V (APOH, Homo sapiens, UniProt P02749, V266L) | isothermal titration calorimetry | – | 298 K, together with: 50 mM NaCl | – | entropic contribution TΔS | -3.01 kcal/mol
NCCS(=O)(=O)O | Sodium- and chloride-dependent taurine transporter (SLC6A6, Homo sapiens, UniProt P31641, S402A) | binding, microscale thermophoresis | – | 62.5 µM, room temperature, together with: 50 nM labelled protein | higher = more binding | normalised MST signal | -0.0169
O=C(O)[C@@H]1CCCN1c1ncnc2[nH]cnc12 (racemic) | PIAS1 | binding, affinity selection mass spectrometry | – | – | reference: other proteins in batch | log fold enrichment | -0.098
Nc1nc2c(ncn2[C@@H]2O[C@@H]3COP(=O)(O)O[C@H]3[C@H]2O)c(=O)[nH]1 | Cone cGMP-gated channel (Morone saxatilis, UniProt Q3I0N1+Q3I0N2) | channel current, agonist, suction electrode | cone outer segments | together with: 0 µM Ca2+ | – | Hill coefficient | 2.01 ± 0.3

SMILES | target or system | assay | test system | setting | scale | quantity | value
O=C1OC(c2ccccc2)=N/C1=C\c1cccc(O)c1 | Pancreatic alpha-amylase | inhibitor, Lineweaver-Burk | – | 300 ppm, together with: starch substrate | – | Km | 1600 µM
CCCC[C@H]1CN(c2cccc(C)c2C)C(=O)CN1Cc1cncn1Cc1ccc(C#N)cc1 | Cryptococcus neoformans farnesyltransferase | enzyme activity, inhibitor, fluorescence | – | together with: 1 µM FPP, 0.5 µM dansylated peptide | – | IC50 | 2200 ± 1300 nM
Cc1ncccc1OC[C@@H]1CN(CCN2CCc3ccccc32)CCO1 | HTR4 | radioligand binding | – | concentration not given | – | inhibition | 28.8%
Nc1ncnc2c1ncn2[C@@H]1O[C@H](CO[P@](=O)(O)O[P@](=O)(O)O[P@@](=O)(O)S)[C@@H](O)[C@H]1O | GUK1 (Homo sapiens, UniProt Q16774) | ITC | – | molar ratio 1.319 | – | ΔH | -0.803 kcal/mol
C[C@H](N)C(=O)N[C@@H](CCCNC(=N)N)C(=O)N[C@H](C(=O)N[C@@H](C)C(=O)N[C@@H](CCC(N)=O)C(=O)N[C@H](C(=O)N[C@@H](C)C(=O)N[C@@H](CCCNC(=N)N)C(=O)N[C@@H](CCCCN)C(=O)N[C@@H](CO)C(=O)O)[C@@H](C)O)[C@@H](C)O | Transcriptional regulator ATRX (ATRX, Homo sapiens, UniProt P46100, F284Y/K251R) | isothermal titration calorimetry | – | pH 7.5, 25.0 °C | – | binding free energy | -4.81 kcal/mol
Oc1ccc([C@@H]2c3c(O)cc(O)cc3[C@@H]3c4c(cc(O)c5c4[C@@H]2[C@H](c2ccc(O)cc2)[C@H]5c2cc(O)cc4c2[C@@H](c2cc(O)cc(O)c2)[C@H](c2ccc(O)cc2)O4)O[C@H]3c2ccc(O)cc2)cc1 | Pancreatic alpha-amylase | enzyme activity | – | 20 µM | – | Vmax | 2450 ± 1580 µmol/min
Nc1ncnc2c1ncn2[C@@H]1O[C@H](COP(=O)(O)CP(=O)(O)OP(=O)(O)O)[C@@H](O)[C@H]1O | P2X purinoceptor 1 (P2RX1, Homo sapiens, UniProt P51575, K140A) | saturation binding | HEK293 | 79 nM | – | specific binding | 7490 CCPM and 2660 CCPM and 3690 CCPM
Cn1cc(-c2ccc(-c3cncc(Cl)c3N3CCC4(CCNC4=O)CC3)cc2)cn1 | COLO 205 | microarray, item: R3HDM1 | – | concentration not given, 2 h | reference: untreated cells | fold change in expression | -1.46
CN(C)CCC(c1ccc(Br)cc1)c1ccccn1.O=C(O)/C=C\C(=O)O (stereo not drawn) | Nuclear receptor subfamily 2 group C member 2 ligand-binding domain | SPR imaging | – | 600 nM | – | koff | 7.16e-07 s⁻¹
Nc1ccc(C(=O)O)cc1 | BEST1, with wild-type BEST1 (Homo sapiens, UniProt O76090, L234P) | ion current, whole-cell patch clamp | HEK293 co-expressing mutant and wild-type | concentration not given, voltage 100 mV | – | current density | 15.6 pA/pF and 10.8 pA/pF and 24.6 pA/pF and 55.1 pA/pF and 31 pA/pF and 20.1 pA/pF
CC[C@@H](C)[C@@H](NC(=O)[C@@H](Cc1ccc(O)cc1)NC(=O)[C@H]1CCCN1C(=O)[C@@H](CCCNC(=N)N)NC(=O)[C@H](N)Cc1c[nH]cn1)C(=O)N[C@H](C)C(=O)N[C@H](Cc1c[nH]cn1)C(=O)N[C@H](CCCNC(=N)N)C(=O)N[C@@H](C(=O)N[C@H](Cc1ccc(O)cc1)C(=O)N[C@H](CO)C(=O)N[C@H](Cc1ccccc1)C(N)=O)C(C)C | Transferrin receptor protein 1 (Tfrc, Mus musculus, UniProt Q62351) | flow cytometry | RAW264.7 | 48 h, pH 6, replicate 2, unit not given | reference: 0 h | surface TFRC expression | 1.13
CC(NC(=O)CCCc1ccc2ccc3cccc4ccc1c2c34)C(=O)NO (stereo not drawn) | Histone deacetylase 8 (HDAC8, Homo sapiens, UniProt Q9BY41) | ITC | phosphate buffer | pH 7.5 | – | TΔS | 6.2 kcal/mol
O=C(Nc1cnccc1Cl)N1CCN(Cc2ccc3c(c2)OC(F)(F)O3)CC1 | Fatty-acid amide hydrolase 1 (Faah, Mus musculus, UniProt O08914) | enzyme activity, inhibitor, ex vivo | rat, liver | oral, 8 h | – | ED50 | 3.7 mg/kg
CN(C)C(=O)CCc1nc(-c2ccccc2)c(-c2ccccc2)o1 | COS-7 | – | – | 50 µM, 24 h, 0.1% DMSO, unit not given | reference: vehicle control | confluence | 0.93 ± 0.06
CC[S+]([O-])c1nc(-c2ccccc2)cc(C(F)(F)F)n1 (stereo not drawn) | Exportin-1 (XPO1, Homo sapiens, UniProt O14980) | nuclear export, high content imaging | HeLa Kyoto reporter | 15.8 µM, 2 h | – | cells with nuclear reporter | 2.8% and 0.69% and 3.46%
C=CC(=O)N1CCC(COCC(=O)N2CCN(c3nc(-c4cnc(N)nc4C(F)F)nc(N4CCOC[C@@H]4C)n3)CC2)CC1 | Serine/threonine-protein kinase MARK2 (MARK2, Homo sapiens, UniProt Q7KZI7) | KINOMEscan | – | 1 µM | – | remaining binding | 77%
COCCC(=O)N1CCC(Oc2ccccc2)C1 (stereo not drawn) | PIAS1 | binding, affinity selection mass spectrometry | – | – | reference: other proteins in batch | fold enrichment | 1.13
COc1cccc(OC[C@H]2CN(CCN3CCc4ccccc43)CCO2)c1 | HTR4 | radioligand binding | – | concentration not given | – | inhibition | 10.3%
CCc1cnn2c(NCc3ccc[n+]([O-])c3)cc(N3CCCC[C@H]3CCO)nc12 | Bromodomain-containing protein 4 (BRD4, Homo sapiens, UniProt O60885) | 19F NMR, item: tyrosine 97 | – | 94 µM | reference: free protein | chemical shift change | -0.192 ppm

A few entries again:
SMILES | target or system | assay | test system | setting | scale | quantity | value
CCCC[C@H](NC(=O)[C@H](C)c1c(C)[nH]c2ccc(O)cc12)c1ncc(-c2cc3ccccc3nc2OC)[nH]1 | 5-hydroxytryptamine receptor 1A (HTR1A, Homo sapiens, UniProt P08908) | – | – | – | – | Hill coefficient | 1
CCC(=O)NS(=O)(=O)c1ccc(-c2c(-c3ccccc3)noc2C)cc1 | COS-7 | – | – | 100 µM, 24 h, 0.1% DMSO, unit not given | reference: control | necrosis | 0.71 ± 0.06
